Experimental data from different studies.
Each line is one published result; not all experiments were run side by side. Several values in a cell are separate wells, animals, samples, runs or records. Numbers after ± are the reported error. In brackets after ≈: the same amount, converted by molar mass.
UniProt P35232, sequence (whole entry, looked up): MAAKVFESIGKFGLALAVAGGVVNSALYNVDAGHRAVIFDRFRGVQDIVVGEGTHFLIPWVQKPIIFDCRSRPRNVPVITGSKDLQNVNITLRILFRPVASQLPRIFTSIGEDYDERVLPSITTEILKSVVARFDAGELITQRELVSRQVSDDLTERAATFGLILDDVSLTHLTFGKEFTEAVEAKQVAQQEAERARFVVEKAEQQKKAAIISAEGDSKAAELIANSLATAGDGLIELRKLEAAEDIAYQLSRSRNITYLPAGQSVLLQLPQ
UniProt P08913, sequence (whole entry, looked up): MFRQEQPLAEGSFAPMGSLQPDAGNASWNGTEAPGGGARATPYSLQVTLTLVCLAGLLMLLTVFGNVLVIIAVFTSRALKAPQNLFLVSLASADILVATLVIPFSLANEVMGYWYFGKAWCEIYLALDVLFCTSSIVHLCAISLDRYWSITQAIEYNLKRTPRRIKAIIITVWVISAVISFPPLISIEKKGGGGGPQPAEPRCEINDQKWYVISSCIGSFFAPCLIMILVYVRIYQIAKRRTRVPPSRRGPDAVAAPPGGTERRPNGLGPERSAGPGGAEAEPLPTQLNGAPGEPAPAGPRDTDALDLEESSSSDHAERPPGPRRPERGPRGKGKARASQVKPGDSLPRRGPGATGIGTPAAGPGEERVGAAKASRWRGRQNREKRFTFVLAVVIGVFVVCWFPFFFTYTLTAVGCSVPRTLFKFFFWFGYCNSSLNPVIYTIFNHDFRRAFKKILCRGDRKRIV

Cn1cncc1C1=CN(c2ncnc3[nH]cnc23)CCS1
CC50 (EKVX; lung cancer): > 200 µM

CC(C)N1CCC(NC2CCN(c3cccc(-c4cc5cc(F)ccc5[nH]4)c3)CC2)CC1
GI50 (EKVX): 1.65 µM

C[C@]12CC[C@H](O)C[C@H]1CC[C@@H]1[C@@H]2CC[C@]2(C)[C@@H](c3ccc(=O)oc3)CC[C@]12O
mRNA level (MCF7; RT-qPCR, item: AGR2; 20 nM, 48 h, without estradiol, unit not given; baseline: untreated): 0.631 and 0.822 and 0.536

CO[C@H]1C[C@@H]2CC[C@@H](C)[C@@](O)(O2)C(=O)C(=O)N2CCCC[C@H]2C(=O)O[C@H]([C@H](C)C[C@@H]2CC[C@@H](OC(=O)NCCOCCOCCOCCOCCOCCOCCOCCOCCC(=O)N3CCc4cc(Cn5nc(-c6ccc7oc(N)nc7c6)c6c(N)ncnc65)ccc4C3)[C@H](OC)C2)C[C@@H](O)[C@H](C)/C=C(\C)[C@@H](O)[C@@H](OC)C(=O)[C@H](C)C[C@H](C)/C=C/C=C/C=C/1C
TRAE incidence (phase 1 dose escalation, item: headache; advanced solid tumour patients; intravenous, 12 mg weekly, any grade): 16.7%

Oc1cc(Cl)ccc1Oc1ccc(Cl)cc1Cl
point of departure (HepG2; extracellular flux, item: oxygen consumption rate; 1 h, representative mode): 1.38 µM

COc1cc(Nc2ncc(F)c(Nc3ccc4c(n3)NC(=O)C(C)(C)O4)n2)cc(OC)c1OC
IC50 (ADRA2A (Homo sapiens, UniProt P08913)): > 10 µM

COc1cc2c(Oc3ccc4[nH]c(C)cc4c3F)ccnc2cc1OCC1(N)CC1
grade 1 or 2 Cholesterol elevation (paediatric recurrent refractory sarcoma; 10 mg): 25%

Oc1ccc(C2(c3ccc(O)cc3)c3ccccc3-c3ccccc32)cc1
cell cycle distribution (HepG2 spheroids; flow cytometry; concentration not given, 96 h): no effect

Cn1cc(-c2ccc(-c3cncc(Cl)c3N3CCC4(CCNC4=O)CC3)cc2)cn1
fold change in expression (COLO 205; microarray, item: BIRC5; concentration not given, 2 h, gene set Survivin; baseline: untreated cells): -2.41

Nc1ncnc2c1ncn2[C@@H]1O[C@@H]2COP(=O)(O)O[C@H]3[C@@H](O)[C@H](n4cnc5c(=O)[nH]cnc54)O[C@@H]3COP(=O)(O)O[C@H]2[C@H]1O
pathway fold enrichment (HFF-1; RNA sequencing, item: Adherens junctions interactions; downregulated pathway; baseline: Zika virus alone): 11.1

COc1cc(CCC[P+](c2ccccc2)(c2ccccc2)c2ccccc2)c(OC)c2c1OCO2.[I-]
LC50 (UACC-257; SRB): > -4 log M

Nc1nc2nc[nH]c2c(=S)[nH]1
surviving fraction (HCT-116; clonogenic; 0.625 µM, 10 days): 0.967

Cc1cc(C(C)(C)c2ccc(O)c(C)c2)ccc1O
G1 phase cells (HepG2 spheroids; Hoechst flow cytometry; 1 µM, 24 h): 75 ± 3.24%

O=[N+]([O-])c1ccc(Cl)cc1
Emax (human cells; reporter gene, agonist, luciferase reporter; baseline: positive control): 31.7%

O=C1N(Cc2ccccc2Cl)c2ccccc2C12NN=C(c1ccccc1)S2 (centres unmarked)
fold change (MDA-MB-468; gene expression array, item: CCNA2 mRNA; 10 µM, 12 h; baseline: untreated, down): 1.59

O=C(Nc1ccc2[nH]nc(-c3ccncc3)c2c1)[C@@H]1CCN(CC(=O)N2CCN(c3ccc(-c4ncccn4)cc3)CC2)C1
PI-positive cells (HCT116; IncuCyte; concentration not given, 20 (unit not given)): 6.83 count and 4.83 count and 5.08 count

CCN(CC)c1ccc(C=NNC(=O)CSc2nc3ccccc3c(=O)n2Cc2ccc(S(N)(=O)=O)cc2)c(O)c1
CC50 (UACC-257; NCI five-dose screen): > 100 µM

COc1c(CCC[P+](c2ccccc2)(c2ccccc2)c2ccccc2)cc2c(c1OC)OCO2.[I-]
LC50 (M14; SRB): > -4 log M

CN[C@@H]1C[C@H]2O[C@@](C)([C@@H]1OC)n1c3ccccc3c3c4c(c5c6ccccc6n2c5c31)C(=O)NC4
mRNA fold change (Caco-2; qRT-PCR, item: Bcl-2; IC50; baseline: untreated): 0.321

Cc1sc2c(c1C)C(c1ccc(Cl)cc1)=N[C@@H](CC(=O)Nc1ccc(O)cc1)c1nnc(C)n1-2
log2 fold change (murine AML cells; BRD4 chromatin occupancy, ChIP-seq, item: Irf2bp2 locus; concentration not given; baseline: DMSO): -2.45

Cn1cc2cc(C(F)(F)c3nnc4ccc(-c5cnn(C6CC6)c5)nn34)c(F)cc2n1
late apoptotic cells (MKN-45; annexin V/PI flow cytometry; 20 nM, 48 h): 29.6% and 20.5% and 27.3%

CN1C(=O)[C@@]23C[C@]4([C@]56C[C@@]78SS[C@@](CO)(C(=O)N7[C@H]5Nc5ccccc56)N(C)C8=O)c5ccccc5N[C@@H]4N2C(=O)[C@]1(CO)SS3
viability (OCI-Ly1; 0.5 µM, 120 h): 0.631%

COc1ccc([C@H]2c3[nH]c4ccc(Cl)cc4c3CCN2C(=O)Oc2ccc(Cl)cc2)cc1
inhibition (human dermal fibroblasts with PBMC; cytokine secretion, item: sVEGF; 0.1 µM, 48 h): 60%

CC(c1ccccc1)(c1ccc(O)cc1)c1ccc(O)cc1
G2 phase cells (HepG2 spheroids; Hoechst flow cytometry; 40 µM, 24 h): 19.3 ± 4.07%

Cn1nccc1Nc1nccc(-c2cc3c(s2)C(C)(C)N(CCN2CCOCC2)C3=O)n1
PI-positive cells (HCT116; IncuCyte; concentration not given, 32 (unit not given)): 14.3 count and 8.75 count and 13.3 count

C/C=C(/C)C(=O)O[C@H]1C(C)=C2[C@H]([C@@H]1OC(=O)CCCCCCC)[C@@](C)(OC(C)=O)C[C@H](OC(=O)CCC)[C@@]1(O)[C@H]2OC(=O)[C@@]1(C)O
log2 fold change (HEK293T; RNA-seq, item: HSP90AA1 mRNA; 10 µM, 6 h; baseline: vehicle): -0.414

Nc1ncc(-c2nc(N3CCOCC3)nc(N3CCOCC3)n2)c(C(F)F)n1
GI50 (OVCAR-3; 72 h): 0.034 µM

O=C(Oc1ccccc1)[c-]1cccc1.[Fe+2].c1cc[cH-]c1
antiproliferative activity (MCF-10A; MTT; concentration not given, 72 h): inactive

Oc1ccc(C(c2ccc(O)cc2)(C(F)(F)F)C(F)(F)F)cc1
spheroid area increase (HepG2 spheroids; planimetry; 2.5 µM, 0 to 24 h; baseline: mean area of 72 h spheroids): 126%

CC[C@H](C)[C@@H]1NC(=O)[C@@H]2CCCN2C(=O)[C@H](CC(C)C)NC(=O)[C@H](CC(C)C)NC(=O)CNC(=O)[C@@H](NC(=O)[C@@H](NC(=O)[C@H](CC(=O)O)NC(=O)CNC(=O)[C@@H](NC(=O)[C@H](C)NC(=O)CNC(=O)[C@H](CCCCN)NC(=O)[C@H](CC(C)C)NC(=O)[C@H](CC(C)C)NC(=O)[C@H](CCCCN)NC(=O)CNC(=O)[C@@H](NC(=O)[C@@H](N)CC(C)C)C(C)C)C(C)C)C(C)C)CSSC[C@@H](C(=O)O)NC1=O
log2 fold change (RNA-seq, item: Dusp1; mouse, traumatic brain injury model, frontal cortex and hippocampus; dose not given; baseline: TBI alone): -2.36

COc1c(C)c2c(c(O)c1C/C=C(\C)CCC(=O)O)C(=O)OC2
IC50 (SK-MEL-5; cell proliferation; skin cancer): 0.851 µM

CN1CCN(C2(CNC3CCN(c4cccc(-c5cc6cc(F)ccc6[nH]5)c4)CC3)CCC2)CC1
CC50 (EKVX): 6.06 µM

COc1ccc2c(c1)[nH]c1c(C)nccc12
DNA methylation (DU-145; bisulfite pyrosequencing, item: RASSF1A promoter CpG site 24; 10 µM, 16 h): 100%

COc1ccc(N(C)c2nc(C)nc3ccccc23)cc1
lowest effective concentration (HCI-10-Luc2; chemotaxis; with: human HGF 50 nM): 0.5 nM

COCCCn1c(N)c(C(=O)NC2CCCC2)c2nc3ccccc3nc21
viability (OCI-Ly1; 0.5 µM, 120 h): 161%

COc1cc(C(=O)c2c[nH]c3cc(-c4cccc(O)c4)ccc23)cc(OC)c1OC
cell migration (MDA-MB-231; scratch wound healing; 50 to 200 nM): inhibited

C[C@H]1CN(c2n[nH]c3nc(N[C@H]4CC[C@H](NS(=O)(=O)CCC(F)(F)F)CC4)ncc23)CCO1
relative abundance (Prohibitin 1 (PHB1, Homo sapiens, UniProt P35232); competitor, Kinobeads competition; human cell extract; 0.16 µM; baseline: vehicle): 1.02

N[C@@H]1C[C@H]1c1ccccc1
viability (OCI-Ly1; 0.1 µM, 120 h): 187%

C[C@@H](O)[C@H]1C(=O)N2C(C(=O)O)=C(SCCN=CN)C[C@H]12
MIC (Escherichia coli DH5α expressing KPC-2; bacterial growth): 16 µg/mL (≈ 53.4 µM)

Cc1cnc2ccc3c(nc(N)n3C)c2n1
relative colony forming efficiency (BALB/c 3T3; 50 µM; baseline: solvent control): 95 ± 1%

CC[C@H](C)[C@H](NC(=O)CNC(=O)[C@@H](N)CCCCN)C(=O)N[C@@H](CC(C)C)C(=O)N[C@@H](CCCCN)C(=O)N[C@@H](CCCNC(=N)N)C(=O)N[C@@H](CCC(=O)O)C(=O)N[C@@H](CCCCN)C(=O)N[C@@H](CCCNC(=N)N)C(=O)N[C@@H](CC(C)C)C(=O)N[C@@H](CCCNC(=N)N)C(=O)N[C@@H](CCCNC(=N)N)C(=O)N[C@@H](CCCCN)C(=O)N[C@@H](CC(N)=O)C(=O)N[C@H](C(=O)N[C@@H](Cc1c[nH]cn1)C(=O)N[C@@H](Cc1c[nH]c2ccccc12)C(=O)N1CCC[C@H]1C(=O)N[C@@H](CCC(=O)O)C(=O)N[C@@H](CCC(=O)O)C(=O)NCC(=O)N[C@@H](CCCCN)C(=O)N[C@@H](CC(C)C)C(=O)N[C@@H](CCCNC(=N)N)C(=O)N[C@@H](CCC(=O)O)C(=O)N[C@@H](Cc1ccccc1)C(=O)N[C@@H](Cc1ccccc1)C(=O)N[C@@H](Cc1ccccc1)C(=O)N[C@@H](Cc1ccccc1)C(=O)N[C@@H](CCC(=O)O)C(=O)N[C@@H](CC(C)C)C(=O)N[C@@H](CC(=O)O)C(=O)N[C@@H](CCC(=O)O)C(=O)N[C@@H](C)C(=O)N[C@@H](CCC(=O)O)C(=O)N[C@@H](CCCNC(=N)N)C(=O)N[C@H](C(=O)N[C@@H](CC(N)=O)C(=O)N[C@H](C(=O)O)C(C)C)C(C)C)C(C)C
log2 fold change (HeLa (mitotic); protein phosphorylation, TMT phosphoproteomics, item: CDC5L Ser42; cell lysate; concentration not given, 15 min; baseline: treated over control): 3.32

O=C1CCP(=S)(c2ccccc2)CC1
early apoptotic cells (HCT-116; annexin V/PI flow cytometry; IC50, 72 h): 2.9%

COc1cc(C[C@@H](C)[C@@H](C)Cc2cc(O)c(OC)c(OC)c2)cc(O)c1OC
CCL2 mRNA level (THP-1 cells PMA-differentiated; qRT-PCR; 10 µM, 24 h, with: LPS 1 µg/mL; baseline: LPS alone): decreased

C=C1CC[C@@H]2[C@](C)(CCC[C@]2(C)C(=O)O)[C@H]1CC/C(C)=C/CO
PARP cleavage (neuroblastoma M2 (+); western blot; IC50; baseline: untreated): increased
